Results of several laboratories.
Each numbered part is a random draw from the data of one study; scales do not carry over between parts. Positions count from the first letter of the parent shown.

Study 1 — target: NFE2L1, bZIP domain (human); method: DHFR protein complementation; medium: yeast; relative to: wild-type JUN-FOS pair; direction: higher = stronger binding
Notes: single substitutions, most at no-binding floor
Starting sequence: JUN, bZIP domain (human); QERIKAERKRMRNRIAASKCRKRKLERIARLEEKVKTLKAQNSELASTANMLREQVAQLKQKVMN; partner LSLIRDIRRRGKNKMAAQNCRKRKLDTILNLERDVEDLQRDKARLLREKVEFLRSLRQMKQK
| Change | binding fitness |
| --- | --- |
| Q55Y | -1.68 natural log |
| L31R | -1.45 natural log |
| L38C | -1.57 natural log |
| A40Q | -1.47 natural log |

Study 2 — method: aptamer microarray, sandwich; molecule type: DNA with 2'F-ANA; medium: in vitro; concentration: 200 nM; together with: Cy3 exosite-II aptamer, 400 nM; direction: higher = stronger binding; oligonucleotide: GGTTGGTGTGGTTGG
Target: Prothrombin, mature alpha-thrombin (F2, Homo sapiens, UniProt P00734)
Notes: whole 15-mer aptamer, many near background
| Modification | mean fluorescence intensity [a.u.] |
| --- | --- |
| 2'F-ANA at 2 4 6 8 9 10 13 | 76.6 |
| 2'F-ANA at 3 4 6 7 9 11 13 14 | 233 |
| 2'F-ANA at 1 2 3 4 6 8 9 10 12 13 14 | 55.8 |
| 2'F-ANA at 1 2 4 5 7 8 11 12 13 14 15 | 46 |
| 2'F-ANA at 1 2 4 5 7 8 9 10 11 12 13 14 15 | 53.8 |

Study 3 — method: DHFR PCA, deep sequencing; medium: yeast; together with: (+)-ABA 0.032 µM; relative to: wild-type fitted maximum; direction: higher = stronger binding
Target: ABI1, truncated, D143A, DHFR fusion (Arabidopsis thaliana)
Notes: methotrexate growth selection, single substitutions
Starting sequence: PYL1, truncated, DHFR fusion (Arabidopsis thaliana); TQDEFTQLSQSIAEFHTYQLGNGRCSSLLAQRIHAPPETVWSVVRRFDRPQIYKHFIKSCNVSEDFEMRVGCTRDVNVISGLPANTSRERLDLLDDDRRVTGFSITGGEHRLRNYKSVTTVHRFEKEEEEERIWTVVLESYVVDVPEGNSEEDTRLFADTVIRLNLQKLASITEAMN; partner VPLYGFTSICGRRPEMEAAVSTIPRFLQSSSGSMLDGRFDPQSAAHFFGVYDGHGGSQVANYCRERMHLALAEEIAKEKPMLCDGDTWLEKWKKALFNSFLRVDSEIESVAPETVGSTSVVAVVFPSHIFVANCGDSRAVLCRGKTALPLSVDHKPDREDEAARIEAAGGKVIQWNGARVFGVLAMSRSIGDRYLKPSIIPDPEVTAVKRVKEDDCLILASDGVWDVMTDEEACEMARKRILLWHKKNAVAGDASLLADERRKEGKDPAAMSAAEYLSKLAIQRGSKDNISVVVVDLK
| Change | relative binding score [%] |
| --- | --- |
| S63F | -6.74 |
| T160D | 0.839 |
| N61S | 47.2 |

Further values, each from its own experiment
| Molecule | target | assay | system | conditions | scale | endpoint | result |
| --- | --- | --- | --- | --- | --- | --- | --- |
| PhoQ, residues 284 288 289 292 302 303 SLGVVW | PhoP, residues 12 14 15 18 19 NNFVT (Escherichia coli, UniProt P23836) | Sort-seq, measured: YFP reporter | E. coli | PhoQ-PhoP variant library, together with: 10 µM Mg2+ | relative to: high Mg2+ state, higher = stronger signaling | fold induction | 12.3 |

For quick reference, copied from above (study 2):
| Modification | mean fluorescence intensity [a.u.] |
| --- | --- |
| 2'F-ANA at 3 4 6 7 9 11 13 14 | 233 |
